Published values gathered from unrelated publications.
Lines come from different studies, so protocols differ. ± gives the spread as reported.

Structure (SMILES) | cell line | test | test system | conditions | how to read | measurement | value
Nc1nccnc1C(=O)Nc1nc2ccc(OC(F)(F)F)cc2s1 | Calu-3 | ATP content | – | concentration not given, 48 (unit not given) | – | cytotoxicity | 62.7%
COc1cc(/C=C/C=C2\SC(=S)NC2=O)ccc1O | HeLa and HEK293T | – | – | concentration not given | – | cytotoxicity | not toxic
COC(=O)NC(C(=O)NN(Cc1ccc(Br)cc1)CC(O)(Cc1ccccc1)C(=O)NC1c2ccccc2CC1O)C(C)(C)C (stereo not drawn) | 2/4/A1 rat cell monolayer | – | – | pH 7.4, 1% BSA in receiver | – | Papp A-to-B | 192 ± 18.8 ×10⁻⁶ cm/s
CC(C)=CCc1cc(-c2coc3cc(O)c(CC=C(C)C)c(O)c3c2=O)ccc1O | K562 | cell growth or viability, MTT | – | 50 µg/mL | – | viability | 9.22%
CCCCn1cc(C(=O)O)c(=O)c2cc(F)c3[nH]nnc3c21 | T47D | cell growth or viability, SRB | – | – | – | IC50 | 41.2 µM
CCCCCCCOc1ccc(CC[C@](N)(CO)COP(=O)(O)O)cc1C(F)(F)F | primary human cardiac myocytes | – | supernatant | 100 nM | – | time to phosphate metabolite detection | 6 h
CCCCn1cc(C(=O)O)c(=O)c2cc(F)c3c(nnn3-c3cccc(OC)c3)c21 | K562 | cell growth, SRB | – | 72 h | – | IC50 | 30.2 ± 4.88 µg/mL
Cn1c2ccc(Cl)c(=O)c-2nc2ccccc21 | MRC5 and A549 | WST-8 | – | 72 h | baseline: MRC5 IC50 over A549 IC50 | selectivity ratio | ≥ 5.8 fold
CCCCn1cc(C(=O)O)c(=O)c2cc(F)c(Nc3ccccc3OC)c([N+](=O)[O-])c21 | T47D | cell growth, SRB | – | 72 h | – | IC50 | 133 ± 2.66 µg/mL
C[C@@H]1NC(=O)[C@@H]2CSSC[C@H](NC(=O)[C@H](CC(=O)O)NC(=O)[C@H](CC(=O)O)NC(=O)CNC(=O)[C@H](CC(=O)O)NC(=O)[C@H](Cc3ccc(O)cc3)NC1=O)C(=O)N[C@@H](CCCCN)C(=O)N[C@@H](CO)C(=O)N[C@@H](C)C(=O)NCCc1cccc3c1Oc1c(cccc1-3)CCC(=O)N[C@@H](CO)C(=O)N2 | OVCAR-3 | – | – | concentration not given | – | cytotoxicity | not toxic
COC(=O)NC(C(=O)NN(Cc1ccc(Br)cc1)CC(O)(Cc1ccccc1)C(=O)NC1CCOC1)C(C)(C)C (stereo not drawn) | 2/4/A1 rat cell monolayer | – | – | pH 7.4, 1% BSA in receiver | – | Papp A-to-B | 129 ± 10 ×10⁻⁶ cm/s
COC(=O)CC[C@@H](NC(=O)[C@@H](Cc1ccc(OP(=O)(O)O)cc1)NC(=O)[C@@H](Cc1ccccc1)NC(=O)[C@@H](Cc1ccccc1)NC(=O)Cc1ccc2ccccc2c1)C(=O)OC | SAOS-2 | – | – | 200 µM, 24 h | – | remaining compound | 15.2%
CNC(=O)C(NC(=O)C(O)(Cc1ccccc1)CN(Cc1ccc(Br)cc1)NC(=O)C(NC(=O)OC)C(C)(C)C)C(C)(C)C (stereo not drawn) | 2/4/A1 rat cell monolayer | – | – | pH 7.4, 1% BSA in receiver | – | Papp A-to-B | 57.3 ± 9.9 ×10⁻⁶ cm/s
CCCCn1cc(C(=O)O)c(=O)c2cc(F)c(N)c([N+](=O)[O-])c21 | PANC-1 | cell growth, SRB | – | 72 h | – | IC50 | 158 ± 21 µg/mL
COc1cc2c(cc1O)[C@]1(O)C(=O)c3c(O)cc4c(c3O[C@@H]1CO2)C=CC(C)(C)O4 | K562 | cell growth or viability, MTT | – | 12.5 µg/mL | – | viability | 34.9%
COc1ccc(/C=N/N=C/c2ccc([N+](=O)[O-])s2)cc1 | MDBK | CCK-8 | – | 72 h | – | CC50 | > 346 µM
CCC(=C(c1ccc(O)cc1)c1ccc(OCCN(C)CCOCCOCCOCCOCCOCCOCCOCCOCCOCCOCCOCCN(C)CCOc2ccc(C(=C(CC)c3ccccc3)c3ccc(O)cc3)cc2)cc1)c1ccccc1 (mixture of isomers) | U2OS expressing ERα | – | – | 10 µM, Z-Z:Z-E:E-E 1:2:1 isomer mix | – | cell density | 8%
CC[C@H](C)[C@H](N)C(=O)N[C@H](C(=O)N[C@H](C(=O)N[C@H](C(=O)N[C@H](C(=O)N[C@@H](Cc1c[nH]cn1)C(=O)N[C@@H](Cc1c[nH]cn1)C(=O)N[C@@H](Cc1c[nH]cn1)C(=O)N[C@@H](Cc1c[nH]cn1)C(=O)N[C@@H](CCCNC(=N)N)C(=O)N[C@@H](CCCNC(=N)N)C(=O)N[C@@H](CCCNC(=N)N)C(=O)N[C@@H](CCCNC(=N)N)C(=O)N[C@@H](CCCNC(=N)N)C(=O)N[C@@H](CCCNC(=N)N)C(=O)N[C@@H](CCCNC(=N)N)C(=O)N[C@@H](CCCNC(=N)N)C(N)=O)[C@@H](C)CC)[C@@H](C)CC)[C@@H](C)CC)[C@@H](C)CC | MCEC | MTT | – | 32 µM, 4 h, peptide complex, N/P 20, read 3 days later | – | viability | ~70%
NCC1OC(OC2C(N)CC(N)C(OC3OC(CO)C(O)C(N)C3O)C2OCCCCn2cc(CNc3nc(NCc4cn(CCCCOC5C(OC6OC(CN)C(O)CC6N)C(N)CC(N)C5OC5OC(CO)C(O)C(N)C5O)nn4)nc(NCc4cn(CCCCOC5C(OC6OC(CN)C(O)CC6N)C(N)CC(N)C5OC5OC(CO)C(O)C(N)C5O)nn4)n3)nn2)C(N)CC1O (stereo not drawn) | Hep G2 | PrestoBlue | – | 2 µM, 48 h | baseline: untreated | viability | 90%
COC(=O)NC(C(=O)NN(Cc1ccc(-c2ccccc2)cc1)CC(O)(Cc1ccccc1)C(=O)NC1c2ccccc2CC1O)C(C)(C)C (stereo not drawn) | 2/4/A1 rat cell monolayer | – | – | pH 7.4, 1% BSA in receiver | – | Papp A-to-B | 82.3 ± 3.5 ×10⁻⁶ cm/s
COc1ccc(-c2coc3c(CC=C(C)C)c(O)c(CC=C(C)C)c(O)c3c2=O)cc1O | K562 | cell growth or viability, MTT | – | 50 µg/mL | – | viability | 13.2%
OC[C@H]1O[C@@H](Oc2ccc(O)cc2)[C@H](O)[C@@H](O)[C@@H]1O | A-375 | CCK-8 | – | 200 µM, 72 h | – | cytotoxicity | not toxic
CCOC(=O)N1CCN(C(=O)[C@H](Cc2cccc(C(=N)N)c2)NS(=O)(=O)c2c(C(C)C)cc(C(C)C)cc2C(C)C)CC1 | Calu-3 | ATP content | – | concentration not given, 48 (unit not given) | – | cytotoxicity | 0%
CC/C=C\C/C=C\C/C=C\C/C=C\C/C=C\C/C=C\CCC(=O)OC(CO)COP(=O)(O)OCC(N)C(=O)O (stereo not drawn) | human brain-like endothelial cells | LC-MS | in vitro BBB model | 1 µM, 180 min, pH 7.4 | – | intracellular accumulation | 10.4 ± 0.49%
CCCCn1cc(C(=O)O)c(=O)c2cc(F)c(Nc3cc(OC)c(OC)c(OC)c3)c([N+](=O)[O-])c21 | T47D | cell growth, SRB | – | 72 h | – | IC50 | 2.84 ± 0.11 µg/mL
CC(=O)N[C@H](C(=O)N[C@H](C(=O)N[C@@H](CCCNC(=N)N)C(=O)N1Cc2ccccc2C[C@H]1C(=O)N[C@@H](Cc1ccccc1)C(N)=O)C1CCCCC1)C(C)C | human PBMC | Bio-Plex multiplex, measured: IL-6 | – | 500 µg/mL, 24 h | – | cytokine level | 489 ± 677 pg/mL
Cc1ncsc1-c1ccc(CNC(=O)[C@@H]2C[C@@H](O)CN2C(=O)[C@@H](NC(=O)CN2CCN(C3CN(CCNC(=O)C[C@@H]4N=C(c5ccc(Cl)cc5)c5c(sc(C)c5C)-n5c(C)nnc54)C3)CC2)C(C)(C)C)cc1 | Sf9 | – | culture medium | – | – | kinetic solubility | > 200 µM
CCCCn1cc(C(=O)O)c(=O)c2cc(F)c(Nc3cccc(OC)c3)c([N+](=O)[O-])c21 | K562 | cell growth, SRB | – | 72 h | – | IC50 | 5.9 ± 0.57 µg/mL
COc1ccc(NC(=O)c2ccc(-c3ccc(C(=N)N)cc3C)cc2)cc1N1CCN(C)CC1 | Calu-3 | ATP content | – | concentration not given, 48 (unit not given) | – | cytotoxicity | 0%
CC(C)=CCc1c2c(c(O)c3c(=O)c(-c4ccc(O)cc4)coc13)CC(C(C)(C)O)O2 (stereo not drawn) | K562 | cell growth or viability, MTT | – | 12.5 µg/mL | – | viability | 14.2%
